Experimental data from different studies.
Each numbered part is a random draw from the data of one study; scales do not carry over between parts.
Sequence of UniProt P68400 (whole entry, looked up): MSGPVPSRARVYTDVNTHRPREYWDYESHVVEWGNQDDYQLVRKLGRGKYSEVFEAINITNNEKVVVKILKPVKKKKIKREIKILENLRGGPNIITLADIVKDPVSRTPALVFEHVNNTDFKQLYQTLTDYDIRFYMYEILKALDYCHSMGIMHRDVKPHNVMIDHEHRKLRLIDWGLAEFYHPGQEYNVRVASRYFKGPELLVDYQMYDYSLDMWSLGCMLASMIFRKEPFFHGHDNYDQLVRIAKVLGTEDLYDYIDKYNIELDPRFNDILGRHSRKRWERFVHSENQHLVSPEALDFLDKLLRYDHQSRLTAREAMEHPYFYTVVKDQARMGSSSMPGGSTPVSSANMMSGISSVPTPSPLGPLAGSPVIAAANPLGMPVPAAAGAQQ
Sequence of UniProt P51957 (whole entry, looked up): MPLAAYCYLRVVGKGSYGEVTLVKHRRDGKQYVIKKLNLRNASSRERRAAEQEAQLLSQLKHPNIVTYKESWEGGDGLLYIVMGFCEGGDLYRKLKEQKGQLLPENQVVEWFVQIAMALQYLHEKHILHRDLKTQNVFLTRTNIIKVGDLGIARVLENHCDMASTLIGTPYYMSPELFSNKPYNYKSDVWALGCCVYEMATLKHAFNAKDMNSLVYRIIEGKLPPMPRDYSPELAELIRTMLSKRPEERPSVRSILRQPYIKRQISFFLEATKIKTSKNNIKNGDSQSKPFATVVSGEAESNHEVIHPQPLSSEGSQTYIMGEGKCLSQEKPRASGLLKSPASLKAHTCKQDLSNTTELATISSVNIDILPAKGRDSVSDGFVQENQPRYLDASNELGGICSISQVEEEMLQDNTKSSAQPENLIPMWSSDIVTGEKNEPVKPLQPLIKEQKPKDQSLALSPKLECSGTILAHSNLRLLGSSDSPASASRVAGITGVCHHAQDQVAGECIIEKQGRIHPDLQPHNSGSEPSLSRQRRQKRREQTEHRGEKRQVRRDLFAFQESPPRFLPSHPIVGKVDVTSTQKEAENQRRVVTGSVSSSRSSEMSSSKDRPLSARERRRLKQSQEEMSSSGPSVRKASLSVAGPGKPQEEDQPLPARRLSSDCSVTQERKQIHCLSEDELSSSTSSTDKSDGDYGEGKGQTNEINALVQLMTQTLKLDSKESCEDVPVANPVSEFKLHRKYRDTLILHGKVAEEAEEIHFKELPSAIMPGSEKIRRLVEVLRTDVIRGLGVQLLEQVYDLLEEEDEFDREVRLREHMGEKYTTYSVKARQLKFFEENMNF
Sequence of UniProt P52564 (whole entry, looked up): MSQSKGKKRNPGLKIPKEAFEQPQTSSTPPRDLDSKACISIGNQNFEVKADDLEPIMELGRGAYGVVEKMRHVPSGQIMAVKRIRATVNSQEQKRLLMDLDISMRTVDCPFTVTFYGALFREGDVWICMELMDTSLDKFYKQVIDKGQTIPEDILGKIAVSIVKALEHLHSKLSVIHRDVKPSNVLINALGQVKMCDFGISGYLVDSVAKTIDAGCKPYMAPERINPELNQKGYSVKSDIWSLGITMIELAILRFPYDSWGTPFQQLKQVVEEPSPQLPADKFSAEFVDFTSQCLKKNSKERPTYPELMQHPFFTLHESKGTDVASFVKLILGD
Sequence of UniProt Q08881 (whole entry, looked up): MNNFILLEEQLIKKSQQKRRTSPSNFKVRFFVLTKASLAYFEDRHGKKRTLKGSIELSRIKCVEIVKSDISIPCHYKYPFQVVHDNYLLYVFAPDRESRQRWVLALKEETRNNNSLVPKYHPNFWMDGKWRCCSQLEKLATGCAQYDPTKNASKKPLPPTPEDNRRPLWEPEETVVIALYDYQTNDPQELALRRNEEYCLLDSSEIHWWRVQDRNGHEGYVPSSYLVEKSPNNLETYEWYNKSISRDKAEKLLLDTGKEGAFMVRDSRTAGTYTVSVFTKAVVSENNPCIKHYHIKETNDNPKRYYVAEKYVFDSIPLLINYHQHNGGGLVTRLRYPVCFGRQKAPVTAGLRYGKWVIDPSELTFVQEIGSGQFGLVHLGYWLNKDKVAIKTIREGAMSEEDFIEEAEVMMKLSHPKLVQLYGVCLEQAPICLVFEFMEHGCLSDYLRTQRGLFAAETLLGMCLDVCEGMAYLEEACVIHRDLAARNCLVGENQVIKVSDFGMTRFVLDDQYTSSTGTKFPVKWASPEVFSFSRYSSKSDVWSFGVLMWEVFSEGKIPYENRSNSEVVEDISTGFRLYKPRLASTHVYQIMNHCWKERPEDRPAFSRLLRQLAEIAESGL
Sequence of UniProt O15264 (whole entry, looked up): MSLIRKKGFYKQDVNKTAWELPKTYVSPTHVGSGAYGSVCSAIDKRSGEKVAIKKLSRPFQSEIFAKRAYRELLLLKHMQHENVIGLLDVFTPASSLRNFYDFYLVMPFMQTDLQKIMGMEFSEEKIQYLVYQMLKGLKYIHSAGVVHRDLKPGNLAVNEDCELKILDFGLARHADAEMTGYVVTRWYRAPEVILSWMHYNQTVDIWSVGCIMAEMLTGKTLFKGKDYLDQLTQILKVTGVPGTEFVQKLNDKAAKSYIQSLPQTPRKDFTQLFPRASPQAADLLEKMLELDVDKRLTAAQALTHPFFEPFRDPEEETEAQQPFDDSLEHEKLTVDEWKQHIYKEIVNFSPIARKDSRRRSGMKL
Sequence of UniProt P36894 (whole entry, looked up): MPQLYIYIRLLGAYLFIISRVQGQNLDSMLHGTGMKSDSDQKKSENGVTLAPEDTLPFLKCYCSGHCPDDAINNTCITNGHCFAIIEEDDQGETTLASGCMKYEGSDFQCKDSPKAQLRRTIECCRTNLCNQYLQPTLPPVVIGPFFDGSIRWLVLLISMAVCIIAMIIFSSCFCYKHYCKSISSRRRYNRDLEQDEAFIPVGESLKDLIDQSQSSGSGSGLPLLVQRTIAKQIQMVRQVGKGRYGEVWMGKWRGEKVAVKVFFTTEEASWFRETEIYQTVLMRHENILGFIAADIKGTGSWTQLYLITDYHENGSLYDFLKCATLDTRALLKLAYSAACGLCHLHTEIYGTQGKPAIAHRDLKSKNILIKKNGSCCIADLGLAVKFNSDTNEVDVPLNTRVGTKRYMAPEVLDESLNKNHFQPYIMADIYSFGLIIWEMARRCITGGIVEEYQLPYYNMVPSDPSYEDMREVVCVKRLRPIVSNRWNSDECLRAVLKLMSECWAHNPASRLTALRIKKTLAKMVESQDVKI
Sequence of UniProt Q9UM73 (whole entry, unmodified, looked up): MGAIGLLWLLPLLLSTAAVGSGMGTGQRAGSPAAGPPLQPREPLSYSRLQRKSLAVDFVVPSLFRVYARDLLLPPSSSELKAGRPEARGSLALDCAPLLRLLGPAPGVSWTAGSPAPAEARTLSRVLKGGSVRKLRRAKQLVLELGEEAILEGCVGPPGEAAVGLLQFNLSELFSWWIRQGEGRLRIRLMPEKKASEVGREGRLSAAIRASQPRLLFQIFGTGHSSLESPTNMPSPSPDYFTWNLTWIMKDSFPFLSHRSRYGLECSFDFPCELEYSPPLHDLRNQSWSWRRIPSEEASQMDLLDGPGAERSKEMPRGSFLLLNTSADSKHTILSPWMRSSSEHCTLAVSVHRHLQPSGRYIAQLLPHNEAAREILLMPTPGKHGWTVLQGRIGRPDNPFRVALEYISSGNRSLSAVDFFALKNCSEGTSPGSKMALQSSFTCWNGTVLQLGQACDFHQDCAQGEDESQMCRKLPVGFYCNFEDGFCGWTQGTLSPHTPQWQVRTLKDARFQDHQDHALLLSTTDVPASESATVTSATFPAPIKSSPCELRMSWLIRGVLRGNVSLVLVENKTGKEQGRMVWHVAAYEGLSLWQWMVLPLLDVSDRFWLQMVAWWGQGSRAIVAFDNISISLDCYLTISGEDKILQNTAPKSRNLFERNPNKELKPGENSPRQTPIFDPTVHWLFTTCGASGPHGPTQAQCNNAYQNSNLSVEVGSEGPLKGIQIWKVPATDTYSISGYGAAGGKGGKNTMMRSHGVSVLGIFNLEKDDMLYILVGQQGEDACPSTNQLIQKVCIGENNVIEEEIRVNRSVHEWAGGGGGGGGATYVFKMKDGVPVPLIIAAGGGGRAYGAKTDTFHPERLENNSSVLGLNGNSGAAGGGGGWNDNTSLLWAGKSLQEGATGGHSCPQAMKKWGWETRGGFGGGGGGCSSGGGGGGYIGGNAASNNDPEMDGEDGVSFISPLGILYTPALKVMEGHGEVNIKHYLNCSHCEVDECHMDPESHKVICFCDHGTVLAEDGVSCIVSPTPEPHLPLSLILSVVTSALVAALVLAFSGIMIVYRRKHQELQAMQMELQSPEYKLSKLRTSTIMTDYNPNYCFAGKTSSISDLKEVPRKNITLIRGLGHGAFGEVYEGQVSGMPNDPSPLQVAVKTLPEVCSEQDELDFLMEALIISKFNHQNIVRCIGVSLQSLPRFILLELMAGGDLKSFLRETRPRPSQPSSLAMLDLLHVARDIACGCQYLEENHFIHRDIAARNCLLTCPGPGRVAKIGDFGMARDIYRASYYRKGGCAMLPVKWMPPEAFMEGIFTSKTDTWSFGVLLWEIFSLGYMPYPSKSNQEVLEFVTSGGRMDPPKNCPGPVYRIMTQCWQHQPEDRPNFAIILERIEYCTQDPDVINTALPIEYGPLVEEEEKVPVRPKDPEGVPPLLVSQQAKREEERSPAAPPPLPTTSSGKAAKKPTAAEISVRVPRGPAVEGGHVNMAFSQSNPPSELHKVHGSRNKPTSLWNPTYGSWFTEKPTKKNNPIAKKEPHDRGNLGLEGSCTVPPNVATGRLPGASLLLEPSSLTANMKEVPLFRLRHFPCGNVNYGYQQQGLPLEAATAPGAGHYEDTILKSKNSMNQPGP
Sequence of UniProt P48729 (whole entry, looked up): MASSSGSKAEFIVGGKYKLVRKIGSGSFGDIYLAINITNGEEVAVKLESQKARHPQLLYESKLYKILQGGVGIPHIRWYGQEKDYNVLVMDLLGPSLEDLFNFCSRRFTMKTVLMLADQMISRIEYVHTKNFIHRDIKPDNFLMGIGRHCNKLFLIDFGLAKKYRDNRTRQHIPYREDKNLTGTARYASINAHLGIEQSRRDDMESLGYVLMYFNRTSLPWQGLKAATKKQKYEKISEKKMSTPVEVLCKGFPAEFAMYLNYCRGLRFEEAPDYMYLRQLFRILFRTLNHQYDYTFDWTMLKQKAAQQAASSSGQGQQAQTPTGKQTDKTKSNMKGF

Block 1
Compound: C=CC(=O)N1CCC([C@@H]2CCNc3c(C(N)=O)c(-c4ccc(Oc5ccccc5)cc4)nn32)CC1
Tested at: 1 µM
Measurement: inhibition
ACVR2A (Homo sapiens, UniProt P27037); enzyme activity, inhibitor: 22%
CLK4 (Homo sapiens, UniProt Q9HAZ1); enzyme activity, inhibitor: 12%
FLT3 (Homo sapiens, UniProt P36888, F691L/ITD); enzyme activity, inhibitor: 3%
BMPR1A (Homo sapiens, UniProt P36894); enzyme activity, inhibitor: 5%
TRPM6 (Homo sapiens, UniProt Q9BX84); inhibitor: 4%
EPHA4 (Homo sapiens, UniProt P54764); cell-free assay: 0%
GRK2 (Homo sapiens, UniProt P25098); enzyme activity, inhibitor: 0%
STK35 (Homo sapiens, UniProt Q8TDR2); enzyme activity, inhibitor: 0%
PRKCE (Homo sapiens, UniProt Q02156); enzyme activity, inhibitor: 17%
ITK (Homo sapiens, UniProt Q08881); enzyme activity, inhibitor: 60%
MARK4 (Homo sapiens, UniProt Q96L34); enzyme activity, inhibitor: 3%
LIM domain kinase 1 (LIMK1, Homo sapiens, UniProt P53667); enzyme activity, inhibitor: 25%
IRAK3 (Homo sapiens, UniProt Q9Y616); enzyme activity, inhibitor: 5%
CSNK2A1 (Homo sapiens, UniProt P68400); enzyme activity, inhibitor: 19%
SNRK (Homo sapiens, UniProt Q9NRH2); enzyme activity, inhibitor: 0%

Block 2
SMILES: COc1cc2ncnc(N3CCN(C(=O)Nc4ccc(Oc5ccccc5)cc4)CC3)c2cc1OC
Read-out: enzyme activity
Action: inhibitor
Tested at: 0.5 µM
Reference: control
Measurement: remaining activity
LRRK2 (Homo sapiens, UniProt Q5S007): 98.3%
PLK2 (Homo sapiens, UniProt Q9NYY3): 105%
IRAK4 (Homo sapiens, UniProt Q9NWZ3): 83.5%
MAPK13 (Homo sapiens, UniProt O15264): 104%
CSNK1A1 (Homo sapiens, UniProt P48729): 108%
MAP2K6 (Homo sapiens, UniProt P52564): 96%
PRKCD (Homo sapiens, UniProt Q05655): 84.3%
MAPK12 (Homo sapiens, UniProt P53778): 94.7%
WNK2 (Homo sapiens, UniProt Q9Y3S1): 102%
CHEK1 (Homo sapiens, UniProt O14757): 99.4%
MAP3K10 (Homo sapiens, UniProt Q02779): 92%
CSNK2A1 (Homo sapiens, UniProt P68400): 96.2%
LYN (Homo sapiens, UniProt P07948): 97.8%
Cyclin-dependent kinase 9, with cyclin T1 (CDK9, Homo sapiens, UniProt P50750): 97.3%
PRKCI (Homo sapiens, UniProt P41743): 105%
BTK (Homo sapiens, UniProt Q06187): 87.8%
STK38 (Homo sapiens, UniProt Q15208): 96.9%
NEK4 (Homo sapiens, UniProt P51957): 94.4%
MKNK2 (Homo sapiens, UniProt Q9HBH9): 94.2%
EPHA5 (Homo sapiens, UniProt P54756): 98.3%
MAP4K2 (Homo sapiens, UniProt Q12851): 94.7%
AKT3 (Homo sapiens, UniProt Q9Y243): 97.5%
PRKG1 (Homo sapiens, UniProt Q13976): 85.6%

Block 3
Compound: Cc1c(NC(=O)c2cc(C(N)=O)nc3cc(F)ccc23)c(C(F)(F)F)nn1Cc1ccc(C(C)(C)C)cc1
Read-out: cell-free assay
Method: competition with immobilised ligand
Tested at: 1 µM
Measurement: remaining binding
WEE2 (Homo sapiens, UniProt P0C1S8): 96%
TNNI3K (Homo sapiens, UniProt Q59H18): 81%
RET (Homo sapiens, UniProt P07949, M918T): 96%
FLT3 (Homo sapiens, UniProt P36888, K663Q): 100%
ALK (Homo sapiens, UniProt Q9UM73, C1156Y): 100%
FLT3 (Homo sapiens, UniProt P36888, D835V): 100%
FER (Homo sapiens, UniProt P16591): 100%
TEC (Homo sapiens, UniProt P42680): 94%
LTK (Homo sapiens, UniProt P29376): 83%
MAPKAPK2 (Homo sapiens, UniProt P49137): 100%
MAP2K6 (Homo sapiens, UniProt P52564): 92%
EGFR (Homo sapiens, UniProt P00533, L858R/T790M): 100%
DDR2 (Homo sapiens, UniProt Q16832): 93%
CAMK2D (Homo sapiens, UniProt Q13557): 84%
DAPK3 (Homo sapiens, UniProt O43293): 76%
CAMKK2 (Homo sapiens, UniProt Q96RR4): 78%
SGK2 (Homo sapiens, UniProt Q9HBY8): 100%
FLT3 (Homo sapiens, UniProt P36888, ITD): 100%
EPHB2 (Homo sapiens, UniProt P29323): 83%
NEK4 (Homo sapiens, UniProt P51957): 100%
Aurora kinase B (AURKB, Homo sapiens, UniProt Q96GD4): 100%
MAPKAPK5 (Homo sapiens, UniProt Q8IW41): 87%
Macrophage colony-stimulating factor 1 receptor, autoinhibited (CSF1R, Homo sapiens, UniProt P07333): 100%
CDK15 (Homo sapiens, UniProt Q96Q40): 100%
FLT3 (Homo sapiens, UniProt P36888, D835Y): 100%

Block 4
Cell line: A-375
Tested at: 100 µM
Time: 18 h
Measurement: viability
Nc1ccc(S(=O)(=O)Nc2ccc(Cl)nn2)cc1: 98.2%
CN1C2=CC(=O)/C(=N\NC(N)=O)C=C2CC1S(=O)(=O)O (stereo not shown): 107%
CNCC(O)c1ccc(OC(=O)C(C)(C)C)c(OC(=O)C(C)(C)C)c1 (stereo not shown): 69.5%
Cc1cc(O)cc(C)c1Cl: 66.4%
CC1=C(C)C(=O)C(C(CCCCCC(=O)O)c2ccccc2)=C(C)C1=O (stereo not shown): 93.4%
NS(=O)(=O)c1cc2c(cc1Cl)N=CNS2(=O)=O: 96%
CC(C)/N=c1\cc2n(-c3ccc(Cl)cc3)c3ccccc3nc-2cc1Nc1ccc(Cl)cc1: 52.8%
Cc1c(Cl)cccc1Nc1ccccc1C(=O)O: 85.4%
NS(=O)(=O)c1cc2c(cc1C(F)(F)F)NC(Cc1ccccc1)NS2(=O)=O (stereo not shown): 74.1%
CC1=C(C(=O)O)N2C(=O)[C@@H](NC(=O)[C@H](N)C3=CCC=CC3)[C@H]2SC1: 107%
